Experimental data collected from several papers.
A part holds a random share of what one study measured. Values joined by “and” are separate records of one study, mostly repeats; a detail may differ.
UniProt O96013, sequence (whole entry, looked up): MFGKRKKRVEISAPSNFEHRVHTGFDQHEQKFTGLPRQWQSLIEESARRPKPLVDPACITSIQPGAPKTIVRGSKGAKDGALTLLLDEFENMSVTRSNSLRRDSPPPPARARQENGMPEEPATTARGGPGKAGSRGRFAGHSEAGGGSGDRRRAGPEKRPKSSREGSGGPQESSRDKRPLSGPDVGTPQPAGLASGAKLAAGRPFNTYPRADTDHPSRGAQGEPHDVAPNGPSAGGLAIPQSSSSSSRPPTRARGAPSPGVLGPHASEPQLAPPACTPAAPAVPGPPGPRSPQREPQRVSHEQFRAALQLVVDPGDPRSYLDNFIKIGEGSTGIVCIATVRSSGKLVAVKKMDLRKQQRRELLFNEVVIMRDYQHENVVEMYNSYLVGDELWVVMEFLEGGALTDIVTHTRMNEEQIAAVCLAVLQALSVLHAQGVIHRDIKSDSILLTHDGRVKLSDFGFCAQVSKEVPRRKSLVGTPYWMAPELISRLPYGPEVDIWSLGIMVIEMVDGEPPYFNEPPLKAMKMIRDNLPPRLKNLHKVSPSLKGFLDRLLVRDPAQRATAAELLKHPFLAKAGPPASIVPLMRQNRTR
UniProt P07949, sequence (whole entry, unmodified, looked up): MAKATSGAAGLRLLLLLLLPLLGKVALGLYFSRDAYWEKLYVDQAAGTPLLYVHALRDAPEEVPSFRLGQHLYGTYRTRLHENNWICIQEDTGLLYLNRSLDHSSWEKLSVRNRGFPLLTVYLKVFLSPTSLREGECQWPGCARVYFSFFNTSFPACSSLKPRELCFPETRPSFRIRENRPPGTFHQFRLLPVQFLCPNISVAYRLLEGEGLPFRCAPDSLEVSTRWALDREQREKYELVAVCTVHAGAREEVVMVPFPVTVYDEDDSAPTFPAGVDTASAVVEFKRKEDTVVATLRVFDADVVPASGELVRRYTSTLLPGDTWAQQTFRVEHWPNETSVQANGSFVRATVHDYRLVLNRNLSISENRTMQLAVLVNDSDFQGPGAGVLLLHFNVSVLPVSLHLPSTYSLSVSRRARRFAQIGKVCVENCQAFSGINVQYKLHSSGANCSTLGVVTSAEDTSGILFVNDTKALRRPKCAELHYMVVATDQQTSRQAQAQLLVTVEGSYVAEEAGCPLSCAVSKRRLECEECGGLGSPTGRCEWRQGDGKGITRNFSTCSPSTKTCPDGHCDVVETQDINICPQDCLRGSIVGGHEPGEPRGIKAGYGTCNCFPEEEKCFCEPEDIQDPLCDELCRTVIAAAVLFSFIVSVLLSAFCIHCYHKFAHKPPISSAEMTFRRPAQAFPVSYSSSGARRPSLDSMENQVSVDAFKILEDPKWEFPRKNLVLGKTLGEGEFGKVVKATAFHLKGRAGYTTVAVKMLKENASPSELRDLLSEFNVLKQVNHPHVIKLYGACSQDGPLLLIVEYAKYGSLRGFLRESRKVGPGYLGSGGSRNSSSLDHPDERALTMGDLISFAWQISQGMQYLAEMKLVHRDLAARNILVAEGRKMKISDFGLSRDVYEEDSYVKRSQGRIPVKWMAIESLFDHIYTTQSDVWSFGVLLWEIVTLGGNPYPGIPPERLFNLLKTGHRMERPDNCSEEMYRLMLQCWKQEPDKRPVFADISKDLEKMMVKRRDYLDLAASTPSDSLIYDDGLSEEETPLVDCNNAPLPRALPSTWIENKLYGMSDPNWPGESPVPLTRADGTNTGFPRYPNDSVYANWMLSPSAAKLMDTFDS
UniProt P21127, sequence (whole entry, looked up): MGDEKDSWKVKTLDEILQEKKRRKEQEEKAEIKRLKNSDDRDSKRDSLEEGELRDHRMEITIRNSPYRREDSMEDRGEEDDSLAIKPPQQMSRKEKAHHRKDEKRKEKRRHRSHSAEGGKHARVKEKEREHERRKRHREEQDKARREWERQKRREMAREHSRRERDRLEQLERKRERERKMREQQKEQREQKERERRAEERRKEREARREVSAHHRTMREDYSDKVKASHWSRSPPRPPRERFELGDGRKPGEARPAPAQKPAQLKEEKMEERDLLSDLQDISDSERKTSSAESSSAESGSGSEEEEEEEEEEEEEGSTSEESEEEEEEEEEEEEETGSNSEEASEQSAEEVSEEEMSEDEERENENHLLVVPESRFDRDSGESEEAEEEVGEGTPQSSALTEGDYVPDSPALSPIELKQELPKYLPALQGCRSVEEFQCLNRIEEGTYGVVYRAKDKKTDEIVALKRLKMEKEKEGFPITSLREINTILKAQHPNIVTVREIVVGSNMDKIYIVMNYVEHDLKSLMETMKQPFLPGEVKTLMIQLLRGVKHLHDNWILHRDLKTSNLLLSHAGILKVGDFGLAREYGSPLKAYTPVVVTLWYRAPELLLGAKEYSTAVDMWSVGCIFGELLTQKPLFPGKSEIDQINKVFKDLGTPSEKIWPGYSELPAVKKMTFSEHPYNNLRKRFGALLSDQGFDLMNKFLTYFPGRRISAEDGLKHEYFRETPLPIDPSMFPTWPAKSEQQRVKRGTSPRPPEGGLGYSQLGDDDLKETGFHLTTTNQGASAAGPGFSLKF

Series 1
SMILES: O=S(=O)(NC1CCC(c2cc(F)ccc2F)(S(=O)(=O)c2ccc(Cl)cc2)CC1)C(F)(F)F (centres unmarked)
Technique: competition with immobilised ligand
Concentration: 1 µM
Measurement: remaining binding
Mitogen-activated protein kinase kinase kinase 9 (MAP3K9, Homo sapiens, UniProt P80192); cell-free assay: 98%
Proto-oncogene tyrosine-protein kinase receptor Ret (RET, Homo sapiens, UniProt P07949, V804L); cell-free assay: 84%
Dual specificity mitogen-activated protein kinase kinase 3 (MAP2K3, Homo sapiens, UniProt P46734); cell-free assay: 83%
Testis-specific serine/threonine-protein kinase 3 (TSSK3, Homo sapiens, UniProt Q96PN8); cell-free assay: 88%
Mitogen-activated protein kinase 13 (MAPK13, Homo sapiens, UniProt O15264); cell-free assay: 100%
Calcium/calmodulin-dependent protein kinase kinase 1 (CAMKK1, Homo sapiens, UniProt Q8N5S9); cell-free assay: 100%
Proto-oncogene tyrosine-protein kinase receptor Ret (RET, Homo sapiens, UniProt P07949); cell-free assay: 92%
Activin receptor type-1 (ACVR1, Homo sapiens, UniProt Q04771); cell-free assay: 92%
Ephrin type-A receptor 6 (EPHA6, Homo sapiens, UniProt Q9UF33); cell-free assay: 100%
Tyrosine-protein kinase ABL1, phosphorylated (ABL1, Homo sapiens, UniProt P00519, E255K); binding: 100%
TGF-beta receptor type-2 (TGFBR2, Homo sapiens, UniProt P37173); cell-free assay: 100%
Serine/threonine-protein kinase PAK 4 (PAK4, Homo sapiens, UniProt O96013); cell-free assay: 100%
Non-receptor tyrosine-protein kinase TYK2, JH2 (TYK2, Homo sapiens, UniProt P29597); cell-free assay: 86%
Ephrin type-B receptor 4 (EPHB4, Homo sapiens, UniProt P54760); cell-free assay: 100%
Tyrosine-protein kinase JAK1, JH1 (JAK1, Homo sapiens, UniProt P23458); cell-free assay: 70%
G protein-coupled receptor kinase 3 (GRK3, Homo sapiens, UniProt P35626); cell-free assay: 92%
Mitogen-activated protein kinase 12 (MAPK12, Homo sapiens, UniProt P53778); cell-free assay: 89%
Tyrosine-protein kinase Fyn (FYN, Homo sapiens, UniProt P06241); cell-free assay: 85%
Tyrosine-protein kinase ABL1, phosphorylated (ABL1, Homo sapiens, UniProt P00519, T315I); cell-free assay: 85%

Series 2
Target: Serine/threonine-protein kinase Nek11 (NEK11, Homo sapiens, UniProt Q8NG66)
Observed: enzyme activity
Mode: inhibitor
Concentration: 0.5 µM
Reference: control
Measurement: remaining activity
Residues (Q8NG66 1-645): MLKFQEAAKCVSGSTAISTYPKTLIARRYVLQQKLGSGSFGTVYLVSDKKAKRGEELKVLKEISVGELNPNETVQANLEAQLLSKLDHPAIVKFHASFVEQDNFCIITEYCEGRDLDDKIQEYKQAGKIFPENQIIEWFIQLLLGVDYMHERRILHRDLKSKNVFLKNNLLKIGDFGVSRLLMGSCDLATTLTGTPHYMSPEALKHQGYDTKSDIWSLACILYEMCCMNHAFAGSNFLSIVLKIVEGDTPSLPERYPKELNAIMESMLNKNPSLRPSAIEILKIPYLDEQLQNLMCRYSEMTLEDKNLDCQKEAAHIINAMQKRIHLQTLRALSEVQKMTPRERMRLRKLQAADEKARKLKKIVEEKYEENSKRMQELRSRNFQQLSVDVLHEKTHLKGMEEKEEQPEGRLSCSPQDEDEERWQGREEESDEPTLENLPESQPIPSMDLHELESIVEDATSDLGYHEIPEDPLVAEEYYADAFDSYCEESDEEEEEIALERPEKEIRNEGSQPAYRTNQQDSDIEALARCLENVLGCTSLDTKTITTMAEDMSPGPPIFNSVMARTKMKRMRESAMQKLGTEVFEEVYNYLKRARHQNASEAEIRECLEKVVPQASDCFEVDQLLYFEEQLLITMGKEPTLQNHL
O=C1c2ccccc2-c2n[nH]c3cccc1c23: 103%
CCN(CC)C(=O)c1ccc(Nc2nc(OCC3CCCCC3)c3[nH]cnc3n2)cc1: 132%
CCN(CC)CCNC(=O)c1c(C)[nH]c(/C=C2\C(=O)Nc3ccc(F)cc32)c1C: 106%
N#Cc1c(NC(=O)c2cccc3ccccc23)sc2c1CCCC2: 105%
CN(C)C[C@H]1CCn2c(c(C3=C(c4cn(C)c5ccccc45)C(=O)NC3=O)c3ccccc32)C1: 74.1%
c1ccc(-c2cnc(Nc3ccc(OCCN4CCCC4)cc3)s2)cc1: 95%
COc1cc2c(cc1OC)-c1[nH]nc(Nc3cccc(F)c3)c1C2: 98.9%
c1ccc(-c2[nH]ncc2-c2ccnc3ccccc23)nc1: 91.8%
CN([C@@H](Cc1ccc(OS(=O)(=O)c2cccc3cnccc23)cc1)C(=O)N1CCN(c2ccccc2)CC1)S(=O)(=O)c1cccc2cnccc12: 103%
Cc1cc2ncc(-c3ccccc3)nc2cc1C: 104%
N#C/C(=C\c1ccc(O)c(O)c1)C(=O)NCc1ccccc1: 95.4%
O=C1C(Cl)=C(N2C(=O)CCC2=O)C(=O)c2ccccc21: 101%
Cn1nc2c3c(cccc31)C(=O)c1ccccc1-2: 105%

Series 3
Target: DNA polymerase theta, ATPase domain (POLQ, Homo sapiens, UniProt O75417)
UniProt O75417, sequence (whole entry, unmodified, looked up): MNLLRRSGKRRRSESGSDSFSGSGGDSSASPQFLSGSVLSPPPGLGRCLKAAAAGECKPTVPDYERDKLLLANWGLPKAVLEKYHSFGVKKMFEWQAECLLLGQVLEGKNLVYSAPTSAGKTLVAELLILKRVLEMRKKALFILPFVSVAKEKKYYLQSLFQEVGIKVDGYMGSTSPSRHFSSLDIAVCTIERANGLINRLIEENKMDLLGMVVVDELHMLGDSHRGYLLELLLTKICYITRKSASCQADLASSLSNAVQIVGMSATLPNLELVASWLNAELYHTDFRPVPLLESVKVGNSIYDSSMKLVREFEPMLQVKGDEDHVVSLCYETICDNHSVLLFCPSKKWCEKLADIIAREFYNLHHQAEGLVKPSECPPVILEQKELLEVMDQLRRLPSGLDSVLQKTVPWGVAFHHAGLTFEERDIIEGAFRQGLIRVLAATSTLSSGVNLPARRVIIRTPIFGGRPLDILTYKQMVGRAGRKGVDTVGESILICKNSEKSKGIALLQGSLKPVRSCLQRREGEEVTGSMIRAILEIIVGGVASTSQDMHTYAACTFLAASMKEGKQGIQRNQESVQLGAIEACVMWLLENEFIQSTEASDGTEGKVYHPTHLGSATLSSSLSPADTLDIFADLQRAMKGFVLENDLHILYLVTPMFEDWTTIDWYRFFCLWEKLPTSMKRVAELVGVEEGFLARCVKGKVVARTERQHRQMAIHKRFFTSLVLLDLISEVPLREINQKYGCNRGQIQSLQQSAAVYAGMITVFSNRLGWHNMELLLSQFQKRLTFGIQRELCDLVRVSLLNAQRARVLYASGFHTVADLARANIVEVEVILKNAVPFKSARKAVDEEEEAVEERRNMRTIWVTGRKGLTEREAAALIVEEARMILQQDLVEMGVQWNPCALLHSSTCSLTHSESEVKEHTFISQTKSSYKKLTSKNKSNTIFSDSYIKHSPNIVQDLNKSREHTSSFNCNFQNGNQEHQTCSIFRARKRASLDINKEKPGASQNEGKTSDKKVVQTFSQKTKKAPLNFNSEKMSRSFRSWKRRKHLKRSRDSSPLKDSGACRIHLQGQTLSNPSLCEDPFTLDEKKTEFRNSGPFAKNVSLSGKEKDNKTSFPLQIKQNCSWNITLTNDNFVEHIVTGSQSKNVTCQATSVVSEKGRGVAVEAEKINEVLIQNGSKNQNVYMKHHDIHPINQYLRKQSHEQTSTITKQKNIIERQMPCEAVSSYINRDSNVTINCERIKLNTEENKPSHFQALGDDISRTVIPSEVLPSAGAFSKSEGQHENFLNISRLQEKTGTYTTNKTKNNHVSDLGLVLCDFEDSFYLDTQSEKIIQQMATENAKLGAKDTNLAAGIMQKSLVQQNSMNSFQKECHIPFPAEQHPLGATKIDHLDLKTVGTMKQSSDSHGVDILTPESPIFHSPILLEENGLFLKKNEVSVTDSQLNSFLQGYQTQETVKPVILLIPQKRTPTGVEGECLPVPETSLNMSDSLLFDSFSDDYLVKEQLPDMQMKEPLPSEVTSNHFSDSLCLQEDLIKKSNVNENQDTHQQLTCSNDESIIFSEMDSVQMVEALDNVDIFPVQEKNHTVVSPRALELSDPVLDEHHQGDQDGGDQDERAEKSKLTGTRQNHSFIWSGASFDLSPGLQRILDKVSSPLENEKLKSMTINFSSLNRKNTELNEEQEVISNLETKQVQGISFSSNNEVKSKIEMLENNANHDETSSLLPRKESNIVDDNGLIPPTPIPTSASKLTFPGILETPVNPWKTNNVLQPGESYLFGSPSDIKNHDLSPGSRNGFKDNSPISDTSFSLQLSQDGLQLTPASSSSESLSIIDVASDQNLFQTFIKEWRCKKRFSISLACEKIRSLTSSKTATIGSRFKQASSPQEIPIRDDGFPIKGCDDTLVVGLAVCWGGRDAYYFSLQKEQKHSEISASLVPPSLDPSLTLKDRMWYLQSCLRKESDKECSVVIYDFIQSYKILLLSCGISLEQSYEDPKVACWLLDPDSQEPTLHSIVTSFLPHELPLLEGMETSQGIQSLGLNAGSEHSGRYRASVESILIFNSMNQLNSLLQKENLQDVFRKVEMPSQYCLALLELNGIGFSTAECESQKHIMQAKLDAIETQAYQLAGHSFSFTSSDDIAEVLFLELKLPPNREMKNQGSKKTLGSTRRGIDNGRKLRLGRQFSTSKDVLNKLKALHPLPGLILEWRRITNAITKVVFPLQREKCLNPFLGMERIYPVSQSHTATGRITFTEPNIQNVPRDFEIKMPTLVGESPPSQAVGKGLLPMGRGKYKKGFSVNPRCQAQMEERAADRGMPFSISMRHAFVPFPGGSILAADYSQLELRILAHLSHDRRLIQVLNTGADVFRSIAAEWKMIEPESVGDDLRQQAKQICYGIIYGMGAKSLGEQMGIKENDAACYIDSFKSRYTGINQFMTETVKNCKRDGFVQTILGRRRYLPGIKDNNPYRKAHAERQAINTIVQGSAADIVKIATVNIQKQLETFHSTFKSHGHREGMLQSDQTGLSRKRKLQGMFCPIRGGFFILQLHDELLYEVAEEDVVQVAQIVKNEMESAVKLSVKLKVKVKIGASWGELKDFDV
Observed: enzyme activity
Mode: inhibitor
Concentration: 77 µM
Reference: untreated
Measurement: remaining activity
Cc1cc(NC(=O)c2cccc(NC(=O)/C=C/CN(C)C)c2)ccc1Nc1nccc(-c2cccnc2)n1: 107%
CC1(C)NC(=O)N(c2ccc([N+](=O)[O-])c(C(F)(F)F)c2)C1=O: 96.1% and 105%
Cc1nc(=O)c2cc(CN(C)c3ccc(C(=O)N[C@@H](CCC(=O)O)C(=O)O)s3)ccc2[nH]1: 89.5%
CN1CCN(c2nc(C3=C(c4c[nH]c5ccccc45)C(=O)NC3=O)c3ccccc3n2)CC1: 99.3%
C=N[C@@H](C(=O)N[C@@H]1C(=O)N2[C@@H]1SC(C)(C)[C@@H]2C(=O)O)c1ccccc1: 93.4%
C[C@@H]1O[C@@H](OC[C@H]2O[C@@H](Oc3c(-c4ccc(OCCO)c(OCCO)c4)oc4cc(OCCO)cc(O)c4c3=O)[C@H](O)[C@@H](O)[C@@H]2O)[C@H](O)[C@H](O)[C@H]1O: 98.8%
CC(NC(=O)c1ccccc1/N=C/c1c(O)ccc2ccccc12)c1ccccc1 (centres unmarked): 91.9%
C[C@](N)(Cc1ccc(O)cc1)C(=O)O: 104%
CN(Cc1cc(Br)cc(Br)c1N)C1CCCCC1: 102%

Series 4
SMILES: Cc1nc(Nc2ncc(C(=O)Nc3c(C)cccc3Cl)s2)cc(N2CCN(CCO)CC2)n1
Mode: inhibitor
Measurement: inhibition
PAK4: Serine/threonine-protein kinase PAK 4 (PAK4, Homo sapiens, UniProt O96013)
Serine/threonine-protein kinase ULK2 (ULK2, Homo sapiens, UniProt Q8IYT8); 1 µM: < 50%
Activin receptor type-1-like (ACVRL1, Homo sapiens, UniProt P37023); 10 µM: 90%
Protein kinase C epsilon type (PRKCE, Homo sapiens, UniProt Q02156); 1 µM: < 50%
Serine/threonine-protein kinase pim-2 (PIM2, Homo sapiens, UniProt Q9P1W9); 1 µM: < 50%
Proto-oncogene tyrosine-protein kinase receptor Ret (RET, Homo sapiens, UniProt P07949, M918T); 10 µM: 99%
Tyrosine-protein kinase JAK1, JH2 pseudokinase domain (JAK1, Homo sapiens, UniProt P23458); 10 µM: < 50%
Cyclin-dependent kinase 11B (CDK11B, Homo sapiens, UniProt P21127); 10 µM: < 50%
Testis-specific serine/threonine-protein kinase 1 (TSSK1B, Homo sapiens, UniProt Q9BXA7); 10 µM: < 50%
PAK4; 10 µM: < 50%
Aurora kinase B (AURKB, Homo sapiens, UniProt Q96GD4); 10 µM: < 50%
PAK4; 1 µM: < 50%
AP2-associated protein kinase 1 (AAK1, Homo sapiens, UniProt Q2M2I8); 10 µM: < 50%
3-phosphoinositide-dependent protein kinase 1 (PDPK1, Homo sapiens, UniProt O15530); 10 µM: < 50%
Wee1-like protein kinase (WEE1, Homo sapiens, UniProt P30291); 10 µM: 76%
Protein kinase C theta type (PRKCQ, Homo sapiens, UniProt Q04759); 10 µM: < 50%
Serine/threonine-protein kinase N2 (PKN2, Homo sapiens, UniProt Q16513); 10 µM: < 50%
Mitogen-activated protein kinase 3 (MAPK3, Homo sapiens, UniProt P27361); 10 µM: < 50%
Ankyrin repeat and protein kinase domain-containing protein 1 (ANKK1, Homo sapiens, UniProt Q8NFD2); 10 µM: < 50%

Excerpt of the above (series 1):
Mitogen-activated protein kinase 13 (MAPK13, Homo sapiens, UniProt O15264); cell-free assay: 100%
Calcium/calmodulin-dependent protein kinase kinase 1 (CAMKK1, Homo sapiens, UniProt Q8N5S9); cell-free assay: 100%
Proto-oncogene tyrosine-protein kinase receptor Ret (RET, Homo sapiens, UniProt P07949); cell-free assay: 92%
Activin receptor type-1 (ACVR1, Homo sapiens, UniProt Q04771); cell-free assay: 92%
Ephrin type-A receptor 6 (EPHA6, Homo sapiens, UniProt Q9UF33); cell-free assay: 100%
Tyrosine-protein kinase ABL1, phosphorylated (ABL1, Homo sapiens, UniProt P00519, E255K); binding: 100%
TGF-beta receptor type-2 (TGFBR2, Homo sapiens, UniProt P37173); cell-free assay: 100%
Serine/threonine-protein kinase PAK 4 (PAK4, Homo sapiens, UniProt O96013); cell-free assay: 100%
Non-receptor tyrosine-protein kinase TYK2, JH2 (TYK2, Homo sapiens, UniProt P29597); cell-free assay: 86%
Ephrin type-B receptor 4 (EPHB4, Homo sapiens, UniProt P54760); cell-free assay: 100%
